Results from different studies.
Protocols differ between the studies behind these lines. Numbers after ± are the reported error.
CTSL: Procathepsin L (CTSL, Homo sapiens, UniProt P07711)
SIRT6: NAD-dependent protein deacylase sirtuin-6 (SIRT6, Homo sapiens, UniProt Q8N6T7)
PDGFRB: Platelet-derived growth factor receptor beta (PDGFRB, Homo sapiens, UniProt P09619)
WRN: Bifunctional 3'-5' exonuclease/ATP-dependent helicase WRN (WRN, Homo sapiens, UniProt Q14191)
KDR: Vascular endothelial growth factor receptor 2 (KDR, Homo sapiens, UniProt P35968)

SMILES	target	test	system	conditions	IC50
NC1CCC(Nc2nccc(-c3cccnc3Oc3ccc(NS(=O)(=O)Cc4ccccc4Cl)c4ccccc34)n2)CC1 (centres unmarked)	Serine/threonine-protein kinase/endoribonuclease IRE2, RNase domain (ERN2, Homo sapiens, UniProt Q76MJ5)	RNase activity, inhibitor	–	with: XBP1 mini-substrate	0.49 ± 0.02 µM
O=C(NCCC#Cc1cc(Nc2nccc(-c3ccn([C@H](CO)c4ccc(Cl)c(F)c4)c(=O)c3)n2)ccn1)OC1CC/C=C/CCC1 (some centres unmarked)	MAPK1 (Homo sapiens, UniProt P28482)	ATF2-GFP phosphorylation, inhibitor, TR-FRET	–	–	0.008 µM
CCCCCCCCCOc1c(CCCC(=O)O)cc(-c2ccc(C(=O)O)cc2)cc1CCCC(=O)O	PTPN11 (Homo sapiens, UniProt Q06124)	enzyme activity, inhibitor, fluorescence	–	–	~5 µM
CCCc1c(OC)c(=O)c2c(O)c(C(=O)OC)c(OC)c3c4c(OC)c(C(=O)OC)c(O)c5c(=O)c(OC)c(CCC)c(c1c23)c54	protein kinase C	enzyme activity, inhibitor	–	whole enzyme	3.5 µM
CC(C)(C)OC(=O)N1CCC(C(=O)N[C@@H](Cc2ccc3ccccc3c2)C(=O)O)(c2ccc3ccccc3c2)CC1	Gag-Pol polyprotein, integrase (gag-pol, Human immunodeficiency virus 1, UniProt P12497)	integrase catalytic activity, inhibitor, HTRF	HIV-1	with: LEDGF/p75	45 µM
N#Cc1nc(N2CCOCC2)nc(N(Cc2ccc(F)cc2)CC2CCCCC2)n1	CTSL	enzyme activity, inhibitor, fluorescence	–	–	0.095 µM
O=C1CC(c2ccc(Br)cc2)N1S(=O)(=O)c1cccc(Cl)c1 (centres unmarked)	Rhomboid protease AarA (Providencia stuartii, UniProt P46116)	enzyme activity, inhibitor, fluorescence	–	–	< 20 µM
Nc1ccc(C(=O)NOCc2ccccc2)cc1[N+](=O)[O-]	SIRT6	enzyme activity, inhibitor, fluorescence	–	–	76.4 µM
COc1ccc2c(c1)C(=C1Nc3ccccc3C1=NOCC(O)CO)C(=O)N2 (centres unmarked)	TYK2 (Homo sapiens, UniProt P29597)	enzyme activity, inhibitor, radiometric	–	–	0.0007 µM
O=c1[nH]c(=O)c2ncn(CCOCP(=O)(O)OP(=O)(O)OP(=O)(O)O)c2[nH]1	DNA polymerase beta (POLB, Homo sapiens, UniProt P06746)	enzyme activity, inhibitor, radiometric	–	–	> 100 µM
Cc1ccc(CNC(=O)[C@H](CCc2ccccc2)NC(=O)[C@H](CCc2ccccc2)NC(=O)Cc2cccc(Oc3ccccc3)c2)cc1	PSMB6/PSMB7 (Homo sapiens, UniProt P28072+Q99436)	inhibitor	–	–	83 µM
CCCCCCCCCCCCCC(=S)NCCCC[C@H](NC(=O)[C@H](CCCNC(=N)N)NC(=O)[C@H](C)N)C(=O)N[C@@H](CO)C(=O)N[C@H](C(=O)O)[C@@H](C)O	SIRT6	enzyme activity, inhibitor	–	–	8.2 µM
COc1cc2nccc(Oc3ccc(NC(=S)NC4CC4)c(Cl)c3)c2cc1C(=O)N1CCCCC1	PDGFRB	–	–	–	1.05 µM
C[C@@]12CC[C@@H]3c4ccc(O)c(I)c4CC[C@H]3[C@@H]1CCC2=O	AKR1C3 (Homo sapiens, UniProt P42330)	enzyme activity, inhibitor, absorbance	–	pH 9	12.3 µM
C#Cc1cccc(Nc2ncnc3cc(OC)c(OCCCN4CCOCC4)cc23)c1	PDGFRB	enzyme activity, inhibitor	–	30 min, with: ATP 80.8 µM	1.18 ± 0.113 µM
Nc1nc2c(c(=O)[nH]1)[n+](Cc1ccc(F)c(F)c1)cn2[C@@H]1O[C@H](COP(=O)(O)O)[C@@H](O)[C@H]1O	NT5C3B (Homo sapiens, UniProt Q969T7)	m7GMP dephosphorylation, inhibitor, malachite green	–	1 h preincubation, pH 7.5, 30 °C, with: m7GMP 100 µM	10.9 ± 1.9 µM
COC(=O)C[C@H](NC(=O)[C@H](C)NC(=O)[C@@H](NC(=O)OCc1ccccc1)C(C)C)C(=O)CF	Caspase-10 (CASP10, Homo sapiens, UniProt Q92851)	enzyme activity, inhibitor, fluorescence	–	–	0.116 µM
COc1ccc(-c2cc(C(F)(F)F)nc(S(=O)(=O)CCC(=O)Nc3ccc(C)cc3)n2)cc1	WRN	enzyme activity, inhibitor	–	–	0.9 µM
O=C(O)/C=C\C(=O)NNC(=O)c1cc2ccccc2cn1	Egl nine homolog 1 (EGLN1, Homo sapiens, UniProt Q9GZT9)	inhibitor, AlphaScreen	–	bimodal curve, rough estimate, with: 2 µM 2-oxoglutarate	> 300 µM
Clc1ccccc1C(c1ccccc1)(c1ccccc1)n1cnc2ccccc21	KCNN4 (Homo sapiens, UniProt O15554)	ion current, inhibitor, patch clamp	–	–	> 20 µM
CNc1nc(N)c(C(=O)c2ccc(F)cc2)s1	GSK3 (Trypanosoma brucei, UniProt Q388M1)	enzyme activity, inhibitor, radiometric	–	–	25 µM
CCc1ccc(NC(=O)CNS(=O)(=O)c2nc(-c3ccc(OC(F)(F)F)cc3)cc(C(F)(F)F)n2)cc1	WRN	inhibitor	–	–	~0.01 µM
COc1cc2nccc(Oc3ccc(NC(=S)N4CCC(F)(F)C4)c(Cl)c3)c2cc1C(N)=O	KDR	–	–	–	0.0796 µM
CCOc1cncc(-c2ccc(NC(=O)C3(c4ccnc(NS(=O)(=O)C5CC5)n4)CCOCC3)nc2)n1	CTP synthase 2 (Canis lupus familiaris, UniProt A0A8I3QAX6)	enzyme activity, RapidFire mass spectrometry	dog	geometric mean	21.8 µM
C=CC1C(OC2OC(COC(CC3C(C(=O)OC)=COC(OC4OC(CO)C(O)C(O)C4O)C3C=C)OC)C(O)C(O)C2O)OC=C(C(=O)OC)C1CC(OC)OC (centres unmarked)	MAL12 (Saccharomyces cerevisiae S288c, UniProt P53341)	enzyme activity, inhibitor, absorbance	–	–	> 100 µM
Fc1ccc2[nH]ccc2c1-c1nc(N2CCOCC2)c2sc(CN3CCN(CC4CC4)CC3)cc2n1	PRKDC (Homo sapiens, UniProt P78527)	enzyme activity, inhibitor	–	–	> 10 µM
CCOC(=O)N1CCN(Cc2nc3c(c(=O)n(C)c(=O)n3C)n2CCC(C)C)CC1	ALDH1A1 (Homo sapiens, UniProt P00352)	–	–	–	0.077 ± 0.015 µM

SMILES	target	test	system	conditions	IC50
CC(C)CCC[C@@H](C)[C@H]1CCC([C@@H]2CC[C@H]3C[C@H](O)CC[C@]3(C)[C@H]2O)[C@]1(C)CC(=O)O (some centres unmarked)	Bile acid receptor (NR1H4, Homo sapiens, UniProt Q96RI1)	transactivation, antagonist, SHP promoter luciferase reporter	HEK293T	with: GW4064 10 µM	4.6 µM
COc1cc2nccc(Oc3ccc(NC(=S)NCCCSC)c(Cl)c3)c2cc1C(N)=O	PDGFRB	–	–	–	0.0197 µM
Cn1c(=O)c2c(nc(CN3CCN(C(=O)C4CC4)CC3)n2Cc2ccccc2)n(C)c1=O	HSD17B4 (Homo sapiens, UniProt P51659)	–	–	–	> 57 µM
CC(C)CN(Cc1ccc(F)cc1)c1nc(C#N)nc(N2CCOCC2)n1	CTSL	enzyme activity, inhibitor, fluorescence	–	–	0.002 µM
CC(=O)Nc1ccc(C(=O)Nc2cc(-c3cccs3)ccc2N)cc1	HDAC10 (Homo sapiens, UniProt Q969S8)	deacetylase activity, inhibitor, recombinant enzyme	–	–	> 30 µM
COCC1CN(C2CCN(c3cc(OC)c(Nc4ncc(Br)c(Nc5ccc6c(c5P(C)(C)=O)OCCO6)n4)cc3C)CC2)C1	EGFR (Homo sapiens, UniProt P00533, C797S/del746-750/T790M)	EGF-induced signalling, cellular TR-FRET	–	30 min, with: EGF 50 ng/mL	0.024 µM
CN(CC(=O)c1ccc2[nH]c(=O)[nH]c2c1)Cc1ccco1	DNA dC->dU-editing enzyme APOBEC-3A (Homo sapiens, UniProt P31941)	deaminase activity, inhibitor, alkaline cleavage	293T lysate, untagged	–	> 1000 µM
C#CCCNC(=O)[C@@H](NC(=O)N[C@H](C(=O)N[C@H]1/C=C/CCNC(=O)/C=C/[C@H](C(C)C)NC1=O)C(C)C)C(C)C	Proteasome subunit beta type-10, trypsin-like site (Homo sapiens, UniProt P40306)	enzyme activity, inhibitor, fluorescence	–	–	0.016 µM
C=CC(=O)NCc1ccc(C(=O)Nc2nc(-c3ccc4c(c3)CCC4)cs2)cc1	GCLC/GCLM (Homo sapiens, UniProt P48506+P48507)	enzyme activity, inhibitor	–	30 min preincubation, 37 °C	8.9 µM
Cc1c(C)n(-c2ccc(Br)cc2)c2ncnc(N3CCC(C(N)C(=O)N4CCCC4)CC3)c12 (centres unmarked)	PADI4 (Homo sapiens, UniProt Q9UM07)	inhibitor, fluorescence quenching	–	with: Ca2+ 0.4 mM	15.8 µM
COc1cc2nccc(Oc3ccc(NC(=S)NC4CCOCC4)c(Cl)c3)c2cc1C(N)=O	KDR	–	–	–	0.339 µM
CCNC(=O)NC(=O)COC(=O)c1cn(-c2ccccc2)nc1-c1ccc(C)cc1C	PTGS2 (Ovis aries, UniProt P79208)	enzyme activity, inhibitor, absorbance	–	–	0.69 µM
N#Cc1ccc(C2Sc3ccccc3NC3=C2C(=O)c2ccccc23)cc1 (racemic)	Cytochrome b (MT-CYB, Homo sapiens, UniProt P00156)	enzyme activity, inhibitor	–	–	> 5 µM
CC(C)(C)CCN(Cc1ccc(F)cc1)c1nc(C#N)nc(N2CCOCC2)n1	CTSL	enzyme activity, inhibitor, fluorescence	–	–	0.16 µM
COc1cc2nccc(Oc3ccc(NC(=S)NC4CC4)c(Cl)c3)c2cc1-c1ncco1	KDR	–	–	–	0.101 µM
CC(C)[C@H](NC(=O)[C@H](C)NC(=O)[C@H](Cc1c[nH]c2ccccc12)NC(=O)[C@H](Cc1c[nH]cn1)NC(=O)[C@H](N)Cc1ccccc1)C(=O)N[C@H](C)C(=O)N[C@@H](Cc1c[nH]cn1)C(=O)N1CCC[C@@H]1CN[C@@H](Cc1ccccc1)C(N)=O	NMBR (Homo sapiens, UniProt P28336)	inositol phosphate generation, antagonist	Balb 3T3 expressing NMBR	with: neuromedin B 1 nM	> 10 µM
N=C(N)NCCC[C@@H]1NC(=O)[C@H](Cc2c[nH]c3ccccc23)NC(=O)[C@H](CCCNC(=N)N)NC(=O)[C@H](Cc2c[nH]c3ccccc23)NC(=O)[C@H](CCCNC(=N)N)NC(=O)[C@H](Cc2c[nH]c3ccccc23)NC(=O)[C@H](CCCNC(=N)N)NC(=O)[C@H](Cc2c[nH]c3ccccc23)NC(=O)[C@H](CCCNC(=N)N)NC(=O)[C@H](Cc2c[nH]c3ccccc23)NC(=O)[C@H](CCCNC(=N)N)NC(=O)[C@H](Cc2c[nH]c3ccccc23)NC1=O	Cyclin-dependent kinase 2, with cyclin A1 (CDK2, Homo sapiens, UniProt P24941)	enzyme activity, inhibitor	–	–	1.45 µM
CC1CC(=O)N(CCCCCN)N=C1c1ccc(NC(=O)N2Cc3ccncc3C2)cc1 (centres unmarked)	NAMPT (Homo sapiens, UniProt P43490)	enzyme activity, inhibitor	–	–	0.0008 µM
CCc1ccc(C(=O)N[C@@H](CO)C(=O)N[C@H](C(=O)N2CCC[C@H]2C(=O)N[C@@H](CC(N)=O)C(=O)NCC(=O)N[C@@H](CC(C)C)C(=O)O)[C@@H](C)OP(=O)(O)O)cc1	Serine/threonine-protein kinase PLK3, polo-box domain (PLK3, Homo sapiens, UniProt Q9H4B4)	polo-box domain binding, fluorescence polarization	–	–	> 600 µM
O=C(Nc1ccc(-c2nc3ncccc3o2)cc1)c1ccccc1Br	Nucleoside transporter 1 (Plasmodium vivax, UniProt A5K8B0)	[3H]adenosine uptake	target-expressing yeast	–	0.0224 ± 0.0118 µM
COc1cc2nccc(Oc3ccc(NC(=S)N4CCN(C)CC4)c(Cl)c3)c2cc1C(N)=O	PDGFRB	–	–	–	0.222 µM
O=C(O)C1CCCNC1 (centres unmarked)	SLC6A6 (Homo sapiens, UniProt P31641)	transporter uptake, inhibitor, radiometric	–	–	3580 µM
COc1cc2nccc(Oc3ccc(NC(=S)NC(C)C(F)(F)F)c(Cl)c3)c2cc1C(N)=O (centres unmarked)	PDGFRB	–	–	–	0.509 µM
O=c1c2ccccc2sn1-c1ccccc1	HDAC5 (Homo sapiens, UniProt Q9UQL6)	enzyme activity, inhibitor	–	–	1.49 µM
COc1cc2nccc(Oc3ccc(NC(=S)NCc4ccncc4)c(Cl)c3)c2cc1C(N)=O	KDR	–	–	–	0.196 µM
[2H]C1([2H])CC[C@@H](C[C@@H](C#N)NC(=O)[C@@H]2[C@@H]3[C@H](CN2C(=O)[C@@H](NC(=O)C(F)F)C(C)(C)C)C3(C)C)C(=O)N1	CTSL	enzyme activity, inhibitor	–	–	≥ 1000 µM

A few entries again:
SMILES	target	test	system	conditions	IC50
COC(=O)C[C@H](NC(=O)[C@H](C)NC(=O)[C@@H](NC(=O)OCc1ccccc1)C(C)C)C(=O)CF	Caspase-10 (CASP10, Homo sapiens, UniProt Q92851)	enzyme activity, inhibitor, fluorescence	–	–	0.116 µM
CC(=O)Nc1ccc(C(=O)Nc2cc(-c3cccs3)ccc2N)cc1	HDAC10 (Homo sapiens, UniProt Q969S8)	deacetylase activity, inhibitor, recombinant enzyme	–	–	> 30 µM
C#Cc1cccc(Nc2ncnc3cc(OC)c(OCCCN4CCOCC4)cc23)c1	PDGFRB	enzyme activity, inhibitor	–	30 min, with: ATP 80.8 µM	1.18 ± 0.113 µM
COc1cc2nccc(Oc3ccc(NC(=S)N4CCN(C)CC4)c(Cl)c3)c2cc1C(N)=O	PDGFRB	–	–	–	0.222 µM
N=C(N)NCCC[C@@H]1NC(=O)[C@H](Cc2c[nH]c3ccccc23)NC(=O)[C@H](CCCNC(=N)N)NC(=O)[C@H](Cc2c[nH]c3ccccc23)NC(=O)[C@H](CCCNC(=N)N)NC(=O)[C@H](Cc2c[nH]c3ccccc23)NC(=O)[C@H](CCCNC(=N)N)NC(=O)[C@H](Cc2c[nH]c3ccccc23)NC(=O)[C@H](CCCNC(=N)N)NC(=O)[C@H](Cc2c[nH]c3ccccc23)NC(=O)[C@H](CCCNC(=N)N)NC(=O)[C@H](Cc2c[nH]c3ccccc23)NC1=O	Cyclin-dependent kinase 2, with cyclin A1 (CDK2, Homo sapiens, UniProt P24941)	enzyme activity, inhibitor	–	–	1.45 µM
CC(C)(C)CCN(Cc1ccc(F)cc1)c1nc(C#N)nc(N2CCOCC2)n1	CTSL	enzyme activity, inhibitor, fluorescence	–	–	0.16 µM
O=C1CC(c2ccc(Br)cc2)N1S(=O)(=O)c1cccc(Cl)c1 (centres unmarked)	Rhomboid protease AarA (Providencia stuartii, UniProt P46116)	enzyme activity, inhibitor, fluorescence	–	–	< 20 µM
